# Assay results gathered from unrelated publications.
# Numbered parts are unrelated; each lists some results of a single study.

# Sample 1
# Target: Ras GTPase-activating protein-binding protein 1, full length (G3BP1, Homo sapiens, UniProt Q13283)
# Chain of UniProt Q13283 (whole entry, looked up): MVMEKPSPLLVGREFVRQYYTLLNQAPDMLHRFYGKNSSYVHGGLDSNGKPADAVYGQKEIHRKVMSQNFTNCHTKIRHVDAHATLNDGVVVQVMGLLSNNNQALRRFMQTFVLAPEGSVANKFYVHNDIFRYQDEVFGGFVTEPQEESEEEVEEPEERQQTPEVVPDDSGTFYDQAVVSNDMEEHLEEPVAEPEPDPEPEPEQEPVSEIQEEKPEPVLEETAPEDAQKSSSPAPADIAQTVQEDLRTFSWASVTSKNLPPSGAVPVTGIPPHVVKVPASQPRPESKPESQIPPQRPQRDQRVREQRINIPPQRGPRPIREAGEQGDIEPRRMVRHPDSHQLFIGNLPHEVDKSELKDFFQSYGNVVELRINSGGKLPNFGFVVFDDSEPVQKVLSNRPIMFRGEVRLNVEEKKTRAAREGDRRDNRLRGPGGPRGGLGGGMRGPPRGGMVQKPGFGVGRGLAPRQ
# Method: RNA Bind-n-Seq
# Form: RNA
# Sample: in vitro
# Tested at: 200 nM
# Notes: whole 134-nt RNA, ends assumed
# Together with: 150 mM LiCl
# Reference: input library
# Reading: higher = stronger binding
# Each molecule: 7-deaza-guanosine replaces G
Oligonucleotide,log2 enrichment
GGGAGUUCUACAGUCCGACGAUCGUCCUGUGCUACACAUCGUAUGUACCGAAUCGGGGUGGGGAAAAAGGGGAAAAAGGGGAAAGUAUUAUGUUACGCCGUUCGGAUCUGCACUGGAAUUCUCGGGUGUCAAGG,0.489
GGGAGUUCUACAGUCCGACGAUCCAAGUCCUGUGCUACACAUCGUAUGUACCGAAUCGGGUGGGAAAAAAAGGGAGGGAAAGUAUUAUGUUACGCCGUUCGGAUCUGCACUUCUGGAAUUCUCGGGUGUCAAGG,-0.0462
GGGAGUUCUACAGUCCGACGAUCGUCCUGUGCUACACAUCGUAUGUACCGAAUCGGGUUUUUUUGGGUGGGUUUUUUUGGGAAAGUAUUAUGUUACGCCGUUCGGAUCUGCACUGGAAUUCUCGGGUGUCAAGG,0.0635
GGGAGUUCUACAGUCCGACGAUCAUAGAUUGCGCAGUCUCUUUGUGGAGAGGACUUGAUCAUUAAAGGAAUCAGCGUUCAUAUAUCCAAUGCCGAACCUAAGCACAAUAGCAAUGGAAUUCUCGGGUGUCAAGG,-0.818
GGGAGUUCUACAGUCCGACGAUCAGUCCUGUGCUACACAUCGUAUGUACCGAAUCGGGGUUUUUGGGGAAAGGGGUGGGGAAAGUAUUAUGUUACGCCGUUCGGAUCUGCACUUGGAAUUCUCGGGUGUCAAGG,-0.514
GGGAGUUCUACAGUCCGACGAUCGUCCUGUGCUACACAUCGUAUGUACCGAAUCGGGGUUUUUGGGGUGGGGAAAAAGGGGAAAGUAUUAUGUUACGCCGUUCGGAUCUGCACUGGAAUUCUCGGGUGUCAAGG,0.0827
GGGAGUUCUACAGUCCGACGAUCCAAGUCCUGUGCUACACAUCGUAUGUACCGAAUCGGGGCCCGGCCCGGCCCGGGGAAAGUAUUAUGUUACGCCGUUCGGAUCUGCACUUCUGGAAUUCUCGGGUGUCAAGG,-0.687
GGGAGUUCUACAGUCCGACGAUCUGGGAGGUGGAUUUUGUUUAUUUUUUUAGCUCAUUUCCAGGGGUGGGAAUUUUCUUUUAAUAUGUGUCAUGAAUAAAGUUGUUUUUGAAAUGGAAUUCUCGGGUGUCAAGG,-0.87

# Sample 2
# Target: Histone acetyltransferase KAT6A, winged helix 1, GST fusion (KAT6A, Homo sapiens, UniProt Q92794, residues 1-85)
# Method: protein binding microarray
# Form: double-stranded DNA, one strand shown
# Sample: in vitro
# Tested at: not given
# Notes: 8-mer, flanks averaged, mean of 2 arrays, mostly near background
# Reference: not given
# Reading: higher = stronger binding
# Target sequence (chain): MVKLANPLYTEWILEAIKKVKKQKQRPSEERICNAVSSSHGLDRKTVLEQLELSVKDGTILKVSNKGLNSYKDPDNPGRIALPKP
Oligonucleotide,E-score
CCTAGTAC,-0.0357
CTCGTCAC,-0.11
ACGGTCCC,0.29
CCAACGGG,0.212
GCAAAGCC,0.15
GCTCCTCC,-0.0497
AAAGCAGC,0.00415
AATATTCT,-0.067
TCTGAACA,-0.0472
AACCTGGT,-0.142
ATTACAGG,0.064
GGCTCTAA,-0.0059
AGCAGCTA,-0.27
CCCACTAG,-0.24
AACTCATG,-0.116
CGATCGCC,0.294
AGGCGCCC,0.203
GAAAACCA,-0.108
AAAACTCA,-0.285
CGCCCTCC,0.25
CGTTCAAA,0.0248
CGTGTGGC,0.104
CTTAATCA,-0.183
CACCTTGA,-0.179
GTCACTCA,-0.142

# Sample 3
# Target: Sal-like protein 4, full length isoform B (SALL4, Homo sapiens, UniProt Q9UJQ4-2, residues 1-616)
# Method: universal PBM
# Form: double-stranded DNA, one strand shown
# Sample: in vitro
# Tested at: not given
# Notes: 8-mer, flanks averaged, mean of replicates
# Reading: higher = stronger binding
# Residues (chain): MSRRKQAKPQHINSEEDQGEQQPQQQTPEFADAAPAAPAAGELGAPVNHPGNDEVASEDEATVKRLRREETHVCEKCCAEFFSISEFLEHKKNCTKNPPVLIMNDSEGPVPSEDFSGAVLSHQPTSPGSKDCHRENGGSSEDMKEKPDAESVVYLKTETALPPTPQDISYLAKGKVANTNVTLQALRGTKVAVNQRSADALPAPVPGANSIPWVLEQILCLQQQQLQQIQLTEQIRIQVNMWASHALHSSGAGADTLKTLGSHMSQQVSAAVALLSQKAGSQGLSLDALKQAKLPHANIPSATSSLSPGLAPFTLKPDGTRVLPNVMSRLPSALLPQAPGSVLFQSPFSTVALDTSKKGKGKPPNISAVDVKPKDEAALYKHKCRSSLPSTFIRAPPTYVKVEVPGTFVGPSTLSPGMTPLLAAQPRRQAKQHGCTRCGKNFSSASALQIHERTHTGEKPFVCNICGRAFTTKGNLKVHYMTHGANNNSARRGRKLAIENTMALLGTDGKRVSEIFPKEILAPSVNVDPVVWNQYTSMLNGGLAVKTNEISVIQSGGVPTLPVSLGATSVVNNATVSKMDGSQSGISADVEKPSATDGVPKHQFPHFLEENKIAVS
Oligonucleotide,E-score
AGATCACA,0.0248
ACTTAGTA,0.189
AAGTCAAC,0.0839
ACAACAGA,0.076
CTCGATAA,0.128
GGTCAATA,0.171
ATCAAGAC,0.0249
TCGAAAGA,0.122
AAAAGGTG,0.00213
TTCCAAAA,0.261
ACGGGGGG,-0.294
ACATCTGC,-0.0893
CTCGCGAA,-0.136
AGTATTTA,0.312
CTTTCGGA,-0.0175
AAAAGCGT,0.118
CCAAGAAC,-0.196
GTGAACAA,0.00846
AGAATATC,0.18
CCTAAACG,-0.11
TCCATCGA,0.0258
GGTGCTGA,-0.358
ATGAGTGG,-0.0708
CCGCTCCC,-0.346
GAACATTC,0.148

# Sample 4
# Target: Interferon regulatory factor 7, full length, phosphomimetic (IRF7, Homo sapiens, UniProt Q92985, residues 1-503, S471D/S472D/S475D/S476D/S477D/S483D/S484D/S487D)
# Method: protein-binding microarray
# Form: double-stranded DNA, one strand shown
# Sample: in vitro
# Tested at: 2200 nM top
# Notes: 60-bp whole probe
# Together with: salmon DNA 0.4 mg/ml
# Reference: random background probes
# Reading: higher = stronger binding
# Shared flanks, not repeated: GCCTAGCAC … GTCTTGATTCGCTTGACGCTGCTG
# Residues (chain): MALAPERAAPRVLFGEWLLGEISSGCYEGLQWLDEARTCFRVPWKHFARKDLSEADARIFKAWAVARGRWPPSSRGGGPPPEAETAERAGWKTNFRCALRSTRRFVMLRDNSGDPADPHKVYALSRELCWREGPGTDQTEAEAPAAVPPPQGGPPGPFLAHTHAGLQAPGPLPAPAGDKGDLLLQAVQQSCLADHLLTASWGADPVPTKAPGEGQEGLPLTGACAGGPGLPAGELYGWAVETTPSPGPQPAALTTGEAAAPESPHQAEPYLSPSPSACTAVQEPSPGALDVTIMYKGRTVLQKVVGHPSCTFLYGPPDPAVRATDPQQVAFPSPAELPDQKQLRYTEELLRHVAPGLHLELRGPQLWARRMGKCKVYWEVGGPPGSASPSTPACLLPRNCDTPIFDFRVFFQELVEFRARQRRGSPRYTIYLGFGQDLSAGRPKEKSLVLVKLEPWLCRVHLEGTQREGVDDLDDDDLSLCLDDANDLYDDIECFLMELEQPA
Oligonucleotide,fitted relative affinity
TCAGGTCTGTTTCTGATACTGTGCTAG,1.29 z-score
GACGGTTTCCTTCTCCTAACGTGCTAG,3.11 z-score
TATTCTCTACTTGTGTCTAGGTGCTAG,2.05 z-score
GAGATTTCCATTATTGCTTCGTGCTAG,1.67 z-score
TCATGTTTGTCACTCTCACTGTGCTAG,2.19 z-score
CAGGGGCTGCCTGGATGCCGGTGCTAG,-1.69 z-score
TGAGGTTTCGGACTGGGTTAGTGCTAG,2.68 z-score
GACGGTATCGGTGTCGGGACGTGCTAG,-0.397 z-score
TACGATCTCAGTATCGAGACGTGCTAG,0.118 z-score
GACGATGTCAGTCTCGAGACGTGCTAG,0.168 z-score
GACGGCATCGGACTGGGGACGTGCTAG,-0.905 z-score
TCAAATCCCCTTCTACTACTGTGCTAG,1.23 z-score
TTAGGTATCGACAATCGGTTAGTGCTA,0.33 z-score
ACGAGTTTCCATTTTCTGAAGTGCTAG,4.51 z-score
TATCCTTCCCCTCTAGGTTCGTGCTAG,2.39 z-score
ATTTGCTTCAGGTTTACCAGAGTGCTA,1.44 z-score
TTAGGACTGGGGACTAGGTTAGTGCTA,-1.07 z-score
TTATGTGTAGGTCTTAAATAGTGCTAG,-0.196 z-score
TTAGGTATCGACTATCTGTTAGTGCTA,0.147 z-score
TCACTACTGCATTTTTTACTGTGCTAG,1.15 z-score
CACGGACTGGGTCTCGGGACGTGCTAG,-0.853 z-score
TTAGGACTGCGTATCGGTTAGTGCTAG,-0.00843 z-score
TTAGTTATCGGGTTTCGGTTAGTGCTA,4.9 z-score
TTAAGTTTCGGTTTCGGTTAGTGCTAG,17.5 z-score
TCAATGATTGGTTGAACACTGTGCTAG,0.192 z-score

# Excerpt of the above (sample 3):
Oligonucleotide,E-score
AGAATATC,0.18
CTCGCGAA,-0.136
AAAAGCGT,0.118
CCGCTCCC,-0.346
GGTCAATA,0.171
ACATCTGC,-0.0893
